Published values collected from several papers.
Compare with care: the assays were run in different laboratories. Values joined by “and” are separate records of one study, mostly repeats; a detail may differ. Numbers after ± are the reported error.

Structure (SMILES) = CCc1ccc(CC/C=C/c2ccc3c(c2)C(=O)CC3)cc1; test system = Sprague-Dawley rat, male; setting = oral, 450 mg/kg/day, 14 days; measurement = Globulin; result = 19.1 g/L
Structure (SMILES) = CC(C)(C)c1cc(-n2nc3ccccc3n2)c(O)c(C(C)(C)C)c1; test = exposure assessment; test system = human, age 3-6 years; setting = spray sunscreen; measurement = mean daily dermal uptake; result = 5.43 ng/kg body weight/day
Structure (SMILES) = CN1CC[C@@H](c2c(O)cc(O)c3c(=O)cc(-c4ccc(C(F)(F)F)cc4Cl)oc23)[C@@H]1CO; test system = human, relapsed/refractory hematologic malignancies; setting = oral, dose not given, of 9 patients discontinued; measurement = related pneumonitis discontinuations; result = 3 cases
Structure (SMILES) = O=S(=O)(Nc1ccccc1)c1ccc(NC(=S)Nc2ccccc2)cc1; test = refers to: CREA; test system = male mouse, blood; setting = oral, 20 mg/kg daily, 14 days; measurement = blood chemistry level; result = 0.16 mg/dL
Structure (SMILES) = COc1ccc(-c2c(-c3ccc(C#N)c(F)c3)nc(N3CCC(N)CC3)n(C)c2=O)cc1F; test = refers to: Hematemesis; test system = human patients; setting = oral, dose not given, dose escalation, NG; measurement = serious adverse event incidence; result = 2%
Structure (SMILES) = COc1cc2c(Oc3ccc4[nH]c(C)cc4c3F)ccnc2cc1OCC1(N)CC1; test system = paediatric recurrent refractory sarcoma; setting = 8 mg; measurement = grade 1 or 2 ALT elevation; result = 25%
Structure (SMILES) = O=C1Nc2cc3[nH]nc(-c4ccncc4)c3cc2CN1Cc1ccccc1; test = CTCAE v4.03; test system = advanced solid tumour patients; setting = intravenous, 0.45 mg/kg, schedules 1/2; measurement = patients with acneiform dermatitis; result = 0%
Structure (SMILES) = CC(C)C(=O)OC[C@H]1O[C@@H](n2ccc(NO)nc2=O)[C@H](O)[C@@H]1O; test system = rat placenta dialysate; setting = 250 ng/mL, 6 h, 10 °C, high QC concentration, together with: NHC 1000 ng/mL; measurement = autosampler stability; result = 103 ± 1.27%
Structure (SMILES) = CC[C@H](C)[C@H](NC(=O)[C@H](Cc1ccccc1)NC(=O)[C@H](CCC(=O)O)NC(=O)[C@H](CCCNC(=N)N)NC(=O)[C@H](C)NC(=O)[C@H](C)NC(=O)[C@H](CCC(N)=O)NC(=O)[C@H](CCC(=O)O)NC(=O)[C@H](CCC(=O)O)NC(=O)[C@H](CC(C)C)NC(=O)[C@H](Cc1ccc(O)cc1)NC(=O)[C@H](CO)NC(=O)[C@H](CO)NC(=O)[C@@H](NC(=O)[C@H](CC(=O)O)NC(=O)[C@H](CO)NC(=O)[C@@H](NC(=O)[C@H](Cc1ccccc1)NC(=O)[C@@H](NC(=O)CNC(=O)[C@H](CCC(=O)O)NC(=O)[C@H](C)NC(=O)CCc1cnc[nH]1)[C@@H](C)O)[C@@H](C)O)C(C)C)C(=O)N[C@@H](C)C(=O)N[C@@H](Cc1c[nH]c2ccccc12)C(=O)N[C@@H](CC(C)C)C(=O)N[C@H](C(=O)N[C@@H](CCCNC(=N)N)C(=O)NCC(=O)N[C@@H](CCCNC(=N)N)C(=O)N[C@@H](CCCCNC(=O)COCCOCCNC(=O)COCCOCCNC(=O)CC[C@H](NC(=O)CCCCCCCCCCCCCCCCC(=O)O)C(=O)O)C(=O)NCC(=O)NCC(=O)N[C@@H](CO)C(=O)N[C@@H](CCCCNC(=O)[C@H](CCCCNc1c(NCCCCCN(O)C(=O)CCC(=O)NCCCCCN(O)C(=O)CCC(=O)NCCCCCN(O)C(C)=O)c(=O)c1=O)Nc1c(NCCCCCN(O)C(=O)CCC(=O)NCCCCCN(O)C(=O)CCC(=O)NCCCCCN(O)C(C)=O)c(=O)c1=O)C(=O)O)C(C)C [zirconium-89 labelled]; test = ex vivo gamma counting; test system = Sprague-Dawley rat, male, stomach; setting = intravenous, 1 nmol, 24 h; measurement = tissue uptake; result = 0.158 %ID/g and 0.169 %ID/g and 0.183 %ID/g and 0.179 %ID/g
Structure (SMILES) = C[C@]1(CO)Cc2ncn(-c3ccc(C#N)c(Cl)c3)c2C(=O)O1; test system = human, Chinese; setting = 20 mg single dose; measurement = subjects with any TEAE; result = 16.7%
Structure (SMILES) = C[C@@H]1OC(=O)NN=C1c1ccc(-c2ccc(F)cc2)c(C(F)(F)F)c1; test = phase I trial, refers to: Ascites worst grade 2; test system = human patients; setting = 5 mg loading then 0.25 mg daily; measurement = patients with adverse event; result = 0%
Structure (SMILES) = Cn1c(-c2ccc(C(N)=O)cc2F)nnc1C(C)(C)Oc1c(F)cc(Cl)cc1F; test system = human; setting = oral, 60 mg, single ascending dose; measurement = medical device site reaction TEAE; result = 33.3%
Structure (SMILES) = Nc1ncnc2c1ncn2[C@@H]1O[C@@H]2COP(=O)([S-])O[C@@H]3[C@H](O)[C@@H](COP([O-])(=S)O[C@H]2[C@H]1O)O[C@H]3n1cnc2c(N)ncnc21.[Na+].[Na+] (stereo partly shown); test system = non-tumor-bearing mice, blood; setting = intravenous, 1 mg/kg, toxicity study; measurement = eosinophil percentage; result = 5.3 ± 3.05%

Excerpt of the above:
Structure (SMILES) = CC[C@H](C)[C@H](NC(=O)[C@H](Cc1ccccc1)NC(=O)[C@H](CCC(=O)O)NC(=O)[C@H](CCCNC(=N)N)NC(=O)[C@H](C)NC(=O)[C@H](C)NC(=O)[C@H](CCC(N)=O)NC(=O)[C@H](CCC(=O)O)NC(=O)[C@H](CCC(=O)O)NC(=O)[C@H](CC(C)C)NC(=O)[C@H](Cc1ccc(O)cc1)NC(=O)[C@H](CO)NC(=O)[C@H](CO)NC(=O)[C@@H](NC(=O)[C@H](CC(=O)O)NC(=O)[C@H](CO)NC(=O)[C@@H](NC(=O)[C@H](Cc1ccccc1)NC(=O)[C@@H](NC(=O)CNC(=O)[C@H](CCC(=O)O)NC(=O)[C@H](C)NC(=O)CCc1cnc[nH]1)[C@@H](C)O)[C@@H](C)O)C(C)C)C(=O)N[C@@H](C)C(=O)N[C@@H](Cc1c[nH]c2ccccc12)C(=O)N[C@@H](CC(C)C)C(=O)N[C@H](C(=O)N[C@@H](CCCNC(=N)N)C(=O)NCC(=O)N[C@@H](CCCNC(=N)N)C(=O)N[C@@H](CCCCNC(=O)COCCOCCNC(=O)COCCOCCNC(=O)CC[C@H](NC(=O)CCCCCCCCCCCCCCCCC(=O)O)C(=O)O)C(=O)NCC(=O)NCC(=O)N[C@@H](CO)C(=O)N[C@@H](CCCCNC(=O)[C@H](CCCCNc1c(NCCCCCN(O)C(=O)CCC(=O)NCCCCCN(O)C(=O)CCC(=O)NCCCCCN(O)C(C)=O)c(=O)c1=O)Nc1c(NCCCCCN(O)C(=O)CCC(=O)NCCCCCN(O)C(=O)CCC(=O)NCCCCCN(O)C(C)=O)c(=O)c1=O)C(=O)O)C(C)C [zirconium-89 labelled]; test = ex vivo gamma counting; test system = Sprague-Dawley rat, male, stomach; setting = intravenous, 1 nmol, 24 h; measurement = tissue uptake; result = 0.158 %ID/g and 0.169 %ID/g and 0.183 %ID/g and 0.179 %ID/g
